{"data": "Measurements from different studies", "cas9": "CRISPR-associated endonuclease Cas9/Csn1 (cas9, Streptococcus pyogenes serotype M1, UniProt Q99ZW2)", "ACHE": "Acetylcholinesterase (ACHE, Homo sapiens, UniProt P22303)", "note": "Each line is one published result; not all experiments were run side by side. ± gives the spread as reported.", "UniProt P22303, sequence (whole entry, looked up)": "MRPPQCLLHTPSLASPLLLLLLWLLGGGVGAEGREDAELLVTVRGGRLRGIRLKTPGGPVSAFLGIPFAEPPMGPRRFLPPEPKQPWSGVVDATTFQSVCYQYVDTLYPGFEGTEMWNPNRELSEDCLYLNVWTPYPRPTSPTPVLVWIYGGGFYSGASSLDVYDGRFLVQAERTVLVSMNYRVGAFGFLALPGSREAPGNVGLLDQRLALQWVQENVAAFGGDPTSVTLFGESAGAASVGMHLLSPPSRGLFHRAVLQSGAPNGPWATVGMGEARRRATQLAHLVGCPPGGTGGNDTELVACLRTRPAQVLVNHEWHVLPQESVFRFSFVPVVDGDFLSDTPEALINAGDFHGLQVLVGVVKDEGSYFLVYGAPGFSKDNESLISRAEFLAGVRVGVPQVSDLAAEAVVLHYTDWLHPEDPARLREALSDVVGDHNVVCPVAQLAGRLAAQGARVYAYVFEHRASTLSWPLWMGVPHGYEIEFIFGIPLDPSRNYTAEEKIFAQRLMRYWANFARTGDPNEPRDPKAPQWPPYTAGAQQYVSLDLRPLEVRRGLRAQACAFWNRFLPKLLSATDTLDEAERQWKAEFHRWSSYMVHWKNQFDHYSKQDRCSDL", "UniProt Q99ZW2, sequence (whole entry, looked up)": "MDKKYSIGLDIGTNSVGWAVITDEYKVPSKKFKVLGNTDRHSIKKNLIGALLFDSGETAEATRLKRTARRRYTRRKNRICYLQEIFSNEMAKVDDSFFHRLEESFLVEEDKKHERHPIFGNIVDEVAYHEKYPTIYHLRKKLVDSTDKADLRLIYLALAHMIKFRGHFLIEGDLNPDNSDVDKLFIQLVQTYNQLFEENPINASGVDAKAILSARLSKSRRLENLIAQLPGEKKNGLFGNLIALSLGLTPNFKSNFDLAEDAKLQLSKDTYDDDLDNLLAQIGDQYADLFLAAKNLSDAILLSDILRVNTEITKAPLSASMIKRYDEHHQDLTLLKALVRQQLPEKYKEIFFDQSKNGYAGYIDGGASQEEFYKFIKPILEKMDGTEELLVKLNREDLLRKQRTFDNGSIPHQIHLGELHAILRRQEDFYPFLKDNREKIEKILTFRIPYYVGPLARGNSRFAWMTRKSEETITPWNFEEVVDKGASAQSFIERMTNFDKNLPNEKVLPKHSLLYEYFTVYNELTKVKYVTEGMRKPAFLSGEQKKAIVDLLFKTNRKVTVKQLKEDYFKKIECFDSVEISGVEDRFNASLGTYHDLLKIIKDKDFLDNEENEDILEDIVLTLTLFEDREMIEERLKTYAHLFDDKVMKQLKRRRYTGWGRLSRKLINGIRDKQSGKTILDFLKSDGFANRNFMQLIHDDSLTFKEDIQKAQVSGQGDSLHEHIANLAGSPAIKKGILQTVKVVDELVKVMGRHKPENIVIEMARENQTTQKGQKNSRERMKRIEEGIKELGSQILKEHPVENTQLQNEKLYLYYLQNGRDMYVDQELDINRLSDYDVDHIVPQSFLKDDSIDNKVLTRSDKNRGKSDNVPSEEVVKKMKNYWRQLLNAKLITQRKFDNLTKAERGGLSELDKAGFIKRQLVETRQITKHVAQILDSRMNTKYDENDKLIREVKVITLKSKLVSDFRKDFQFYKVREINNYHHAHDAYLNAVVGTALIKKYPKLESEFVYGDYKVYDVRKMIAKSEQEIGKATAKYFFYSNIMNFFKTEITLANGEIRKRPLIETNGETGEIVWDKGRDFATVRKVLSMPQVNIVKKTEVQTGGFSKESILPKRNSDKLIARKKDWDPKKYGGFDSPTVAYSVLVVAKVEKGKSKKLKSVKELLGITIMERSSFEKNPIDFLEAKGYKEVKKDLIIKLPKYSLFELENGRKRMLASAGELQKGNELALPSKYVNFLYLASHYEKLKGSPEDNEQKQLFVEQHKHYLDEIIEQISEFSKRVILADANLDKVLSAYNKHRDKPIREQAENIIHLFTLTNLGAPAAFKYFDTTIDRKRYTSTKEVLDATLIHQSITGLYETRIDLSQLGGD", "UniProt Q9Y6L6, sequence (whole entry, looked up)": "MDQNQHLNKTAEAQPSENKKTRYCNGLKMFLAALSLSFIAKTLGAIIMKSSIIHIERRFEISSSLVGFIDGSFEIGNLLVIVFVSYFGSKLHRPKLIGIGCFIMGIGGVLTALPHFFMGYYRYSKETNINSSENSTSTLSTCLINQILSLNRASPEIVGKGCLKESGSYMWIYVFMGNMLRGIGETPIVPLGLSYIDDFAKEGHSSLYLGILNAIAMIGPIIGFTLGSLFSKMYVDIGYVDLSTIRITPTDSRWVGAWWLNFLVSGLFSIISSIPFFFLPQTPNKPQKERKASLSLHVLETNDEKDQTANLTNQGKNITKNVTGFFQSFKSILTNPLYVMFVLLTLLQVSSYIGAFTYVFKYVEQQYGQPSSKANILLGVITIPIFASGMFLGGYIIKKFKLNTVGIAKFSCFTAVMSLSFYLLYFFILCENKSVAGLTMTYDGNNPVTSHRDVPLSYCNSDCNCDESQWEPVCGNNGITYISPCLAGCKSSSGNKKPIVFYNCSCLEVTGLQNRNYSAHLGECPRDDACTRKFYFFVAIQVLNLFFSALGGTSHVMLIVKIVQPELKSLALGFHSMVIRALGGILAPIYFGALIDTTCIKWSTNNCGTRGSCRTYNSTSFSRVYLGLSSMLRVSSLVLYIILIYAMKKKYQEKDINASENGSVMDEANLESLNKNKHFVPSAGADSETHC", "UniProt Q15046, sequence (whole entry, looked up)": "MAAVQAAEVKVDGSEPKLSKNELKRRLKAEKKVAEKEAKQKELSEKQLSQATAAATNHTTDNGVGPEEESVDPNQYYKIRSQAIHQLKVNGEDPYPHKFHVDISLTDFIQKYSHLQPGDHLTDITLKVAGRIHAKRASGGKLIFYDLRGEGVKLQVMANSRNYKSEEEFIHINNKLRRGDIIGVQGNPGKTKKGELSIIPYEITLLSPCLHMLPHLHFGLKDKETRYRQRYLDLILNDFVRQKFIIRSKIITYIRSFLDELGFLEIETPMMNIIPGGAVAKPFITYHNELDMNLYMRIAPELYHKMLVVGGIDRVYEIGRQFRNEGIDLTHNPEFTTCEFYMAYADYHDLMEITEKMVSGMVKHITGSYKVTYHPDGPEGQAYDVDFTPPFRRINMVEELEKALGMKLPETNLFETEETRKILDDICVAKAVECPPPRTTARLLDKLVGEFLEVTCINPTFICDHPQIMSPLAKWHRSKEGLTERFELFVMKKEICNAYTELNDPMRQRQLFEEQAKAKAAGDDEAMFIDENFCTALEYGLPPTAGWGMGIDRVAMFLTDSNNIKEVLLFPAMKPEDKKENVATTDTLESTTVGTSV", "UniProt P0A6L2, sequence (whole entry, looked up)": "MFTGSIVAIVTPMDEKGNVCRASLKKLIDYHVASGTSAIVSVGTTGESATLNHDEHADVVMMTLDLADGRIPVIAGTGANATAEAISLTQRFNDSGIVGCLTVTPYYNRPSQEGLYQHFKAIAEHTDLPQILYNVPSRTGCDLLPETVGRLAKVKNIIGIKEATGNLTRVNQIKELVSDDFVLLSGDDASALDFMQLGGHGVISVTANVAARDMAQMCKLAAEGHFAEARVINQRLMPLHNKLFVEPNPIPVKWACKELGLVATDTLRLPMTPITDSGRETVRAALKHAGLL", "UniProt P35354, sequence (whole entry, looked up)": "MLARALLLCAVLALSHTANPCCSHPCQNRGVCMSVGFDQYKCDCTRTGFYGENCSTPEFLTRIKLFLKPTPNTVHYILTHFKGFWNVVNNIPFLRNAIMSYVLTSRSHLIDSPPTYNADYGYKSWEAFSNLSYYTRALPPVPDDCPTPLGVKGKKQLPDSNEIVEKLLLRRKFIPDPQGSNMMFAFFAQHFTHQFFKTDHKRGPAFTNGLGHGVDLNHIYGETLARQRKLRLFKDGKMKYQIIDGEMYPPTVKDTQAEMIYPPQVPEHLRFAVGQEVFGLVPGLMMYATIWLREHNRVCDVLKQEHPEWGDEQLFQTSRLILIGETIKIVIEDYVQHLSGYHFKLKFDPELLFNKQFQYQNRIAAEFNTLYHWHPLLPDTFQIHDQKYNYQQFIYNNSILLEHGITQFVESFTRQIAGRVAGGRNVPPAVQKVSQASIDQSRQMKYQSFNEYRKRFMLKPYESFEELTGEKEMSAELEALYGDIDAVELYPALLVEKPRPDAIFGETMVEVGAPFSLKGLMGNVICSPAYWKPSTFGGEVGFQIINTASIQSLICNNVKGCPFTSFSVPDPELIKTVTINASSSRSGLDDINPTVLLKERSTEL"}
{"SMILES": "C[C@H]1COCCN1c1nc(NCc2cccnc2C(F)(F)F)c2cccnc2n1", "target": "human phosphodiesterase 3", "IC50": "> 100 µM"}
{"SMILES": "O=c1c(O)c(-c2ccc(O)c(O)c2)oc2cc(O)cc(O)c12", "target": "cas9", "assay": "circular plasmid substrate", "test system": "Streptococcus pyogenes", "IC50": "100 to 200 µM"}
{"SMILES": "C[C@H](CCC(=O)O)[C@H]1CC[C@H]2[C@@H]3[C@@H](O)C[C@@H]4C[C@H](O)CC[C@]4(C)[C@H]3CC[C@]12C", "target": "Gag polyprotein, nucleocapsid protein p7 (gag, Human immunodeficiency virus type 1 group M subtype B, UniProt P04591)", "assay": "NCp7-RNA binding, AlphaScreen", "test system": "HIV-1", "setting": "together with: 25 nM NCp7, 12.5 nM RNA", "IC50": "2.46 µM"}
{"SMILES": "C[C@H]1CN(c2n[nH]c3nc(N[C@H]4CC[C@H](NS(=O)(=O)CCC(F)(F)F)CC4)ncc23)CCO1", "target": "Lysine--tRNA ligase (KARS1, Homo sapiens, UniProt Q15046)", "assay": "biochemical", "IC50": "≥ 20 µM"}
{"SMILES": "COc1cccc2c1C(=O)c1c(O)c3c(c(O)c1C2=O)C[C@@](O)(C(=O)CO)C[C@@H]3O[C@H]1C[C@H](N)[C@@H](O)[C@H](C)O1", "target": "cas9", "assay": "circular plasmid substrate", "test system": "Streptococcus pyogenes", "IC50": "2 to 5 µM"}
{"SMILES": "O=c1[nH]cnc2c([C@@H]3N[C@H](CO)[C@@H](O)[C@H]3O)c[nH]c12", "target": "uncharacterized protein (Trichomonas vaginalis, UniProt A2EYV3)", "assay": "inhibitor", "IC50": "11 µM"}
{"SMILES": "CCOP(=S)(OCC)SC[S+]([O-])CC (stereo not drawn)", "target": "ACHE", "assay": "enzyme activity, inhibitor", "IC50": "145 ± 20.8 µM"}
{"SMILES": "COc1cccc(C2c3ccc(OCC(=O)c4ccc(Cl)cc4)cc3Oc3nc4c(c(N)c32)CCCC4)c1 (stereo not drawn)", "target": "ACHE", "assay": "enzyme activity, inhibitor", "IC50": "6.01 µM"}
{"SMILES": "COc1cc(Nc2ncc(F)c(Nc3ccc4c(n3)NC(=O)C(C)(C)O4)n2)cc(OC)c1OC", "target": "Prostaglandin G/H synthase 2 (PTGS2, Homo sapiens, UniProt P35354)", "IC50": "> 10 µM"}
{"SMILES": "COc1cc(C(=O)N2CC[C@@H](O)[C@@H](N)C2)cc2nc(-c3cc4ccccc4n3CC3CC3)n(C)c12", "target": "Solute carrier organic anion transporter family member 1B1 (SLCO1B1, Homo sapiens, UniProt Q9Y6L6)", "assay": "transport, inhibitor, imaging", "IC50": "7.94 µM"}
{"SMILES": "CCCCCCCCCC(=O)N[C@H]1CCOC1=O", "target": "expR (Pectobacterium carotovorum, UniProt Q4KS34)", "IC50": "0.5 µM"}
{"SMILES": "Nc1c2c(nc3c1C(c1ccc(Cl)c(Cl)c1)c1ccc(OCC(=O)c4ccccc4)cc1O3)CCCC2 (stereo not drawn)", "target": "ACHE", "assay": "enzyme activity, inhibitor", "IC50": "0.562 µM"}
{"SMILES": "CCOP(=O)(OCC)Oc1ccc2c(C)c(Cl)c(=O)oc2c1", "target": "Acetylcholinesterase (Rhipicephalus microplus, UniProt O45210, W384F)", "IC50": "0.009 µM"}
{"SMILES": "O=C(O)c1cccc(C(=O)O)n1", "target": "4-hydroxy-tetrahydrodipicolinate synthase (dapA, Escherichia coli K-12, UniProt P0A6L2)", "assay": "enzyme activity, inhibitor", "setting": "30 °C", "IC50": "17100 µM"}
{"SMILES": "CC(C)C[C@H](NC(=O)[C@@H](N)CCC(N)=O)C(=O)N[C@H](C(=O)N1CCC[C@H]1C(=O)N[C@H](C(=O)N[C@@H](Cc1c[nH]c2ccccc12)C(=O)N[C@@H](CCCNC(=N)N)C(=O)N[C@H](C(=O)N[C@@H](Cc1ccc(O)cc1)C(=O)O)C(C)C)[C@@H](C)O)[C@@H](C)O", "target": "HLA class I histocompatibility antigen, B alpha chain, allele B*18:01 (Homo sapiens, UniProt P01889)", "assay": "peptide-MHC binding, radioligand competition binding", "IC50": "> 70 µM"}
